Assay results from different studies.
Each numbered part is a random draw from the data of one study; scales do not carry over between parts.

Series 1 — method: universal PBM; molecule type: double-stranded DNA, one strand shown; sample: in vitro; tested at: 600 nM; reading: higher = stronger binding
Target: Sal-like protein 4, full length isoform A (SALL4, Homo sapiens, UniProt Q9UJQ4, residues 1-1053)
Sequence of UniProt Q9UJQ4 (whole entry, looked up): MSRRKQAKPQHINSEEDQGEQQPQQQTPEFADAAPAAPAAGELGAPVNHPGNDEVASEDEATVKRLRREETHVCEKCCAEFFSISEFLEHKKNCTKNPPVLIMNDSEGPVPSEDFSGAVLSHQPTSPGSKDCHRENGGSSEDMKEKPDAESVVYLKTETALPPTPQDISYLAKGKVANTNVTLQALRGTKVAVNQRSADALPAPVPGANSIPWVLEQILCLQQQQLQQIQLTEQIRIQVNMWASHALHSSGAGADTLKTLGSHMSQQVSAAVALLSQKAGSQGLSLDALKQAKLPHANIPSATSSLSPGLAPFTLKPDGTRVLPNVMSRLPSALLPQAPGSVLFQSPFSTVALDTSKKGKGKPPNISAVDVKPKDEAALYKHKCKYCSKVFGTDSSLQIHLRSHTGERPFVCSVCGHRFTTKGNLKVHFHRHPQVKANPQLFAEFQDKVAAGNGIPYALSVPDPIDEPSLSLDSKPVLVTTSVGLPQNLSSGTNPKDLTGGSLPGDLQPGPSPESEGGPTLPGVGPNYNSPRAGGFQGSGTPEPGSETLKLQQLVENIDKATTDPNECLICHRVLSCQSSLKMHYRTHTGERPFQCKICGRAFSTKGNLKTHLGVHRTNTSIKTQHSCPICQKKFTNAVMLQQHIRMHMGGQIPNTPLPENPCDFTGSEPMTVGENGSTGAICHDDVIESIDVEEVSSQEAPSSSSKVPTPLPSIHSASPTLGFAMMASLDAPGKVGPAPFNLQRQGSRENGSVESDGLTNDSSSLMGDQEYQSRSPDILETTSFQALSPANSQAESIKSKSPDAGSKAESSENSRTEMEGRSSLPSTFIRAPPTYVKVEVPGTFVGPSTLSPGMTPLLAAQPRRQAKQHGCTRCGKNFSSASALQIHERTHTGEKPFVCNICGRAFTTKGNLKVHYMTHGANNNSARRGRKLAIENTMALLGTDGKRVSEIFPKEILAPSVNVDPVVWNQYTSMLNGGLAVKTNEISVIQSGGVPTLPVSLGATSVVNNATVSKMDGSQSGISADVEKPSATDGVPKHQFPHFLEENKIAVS
Notes: 8-mer, flanks averaged, mean of replicates
The E-score of `CTCGTCAG` is reported as -0.126.
The E-score of `CTAGATAC` is reported as 0.17.
`AGCAAATA` has an E-score of 0.283.
The E-score of `ATTTTTGC` is reported as 0.343.
`CAAGCAAA` gave an E-score of 0.162.
`ACAGTCTA` gave an E-score of 0.0608.
`GCATGAGC` has an E-score of -0.0942.
For `CCTCGTGA`, the E-score was 0.0155.

Series 2 — method: protein binding microarray; molecule type: double-stranded DNA, one strand shown; sample: in vitro; tested at: not given; relative to: not given; reading: higher = stronger binding
Target: Histone acetyltransferase KAT6A, winged helix 2, GST fusion (KAT6A, Homo sapiens, UniProt Q92794, residues 85-181)
Notes: 8-mer, flanks averaged, mean of 2 arrays, mostly near background
Construct (chain): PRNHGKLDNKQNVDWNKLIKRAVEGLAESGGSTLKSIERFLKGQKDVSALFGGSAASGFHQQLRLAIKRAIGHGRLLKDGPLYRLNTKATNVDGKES
`CGATTCAG` has an E-score of 0.143.
`AACCAAAG` has an E-score of 0.128.
`ACCTCGCT` gave an E-score of 0.113.
The E-score of `AATGAATG` is reported as -0.0471.
With `CGACTAAG` the E-score was 0.00348.
With `CGCCTACC` the E-score was 0.0816.
The E-score of `CTCTATCA` is reported as -0.0526.
For `AGTCTCTA`, the E-score was -0.122.

Series 3 — method: protein-binding microarray; molecule type: double-stranded DNA, one strand shown; sample: in vitro; tested at: 250 nM; notes: 60-bp whole probe; added: salmon DNA 0.4 mg/ml; relative to: random background probes; reading: higher = stronger binding; shared flanks, not repeated: GCCTAGCAC … GTCTTGATTCGCTTGACGCTGCTG
Target: Interferon regulatory factor 5, full length, phosphomimetic (IRF5, Homo sapiens, UniProt Q13568-2, residues 1-514, K96S/S451D/S453D/S456D/S462D)
`GACGATATCCGACTGGAGACGTGCTAG` has a log fluorescence of 0.0208 z-score.
`TGTAATGATGTAGGCAAATGGTGCTAG` gave a log fluorescence of 0.0558 z-score.
`TCATGCTTCAGGTTTACCACTGTGCTA` gave a log fluorescence of 0.196 z-score.
The log fluorescence of `TCATTTTTCATTTTGTTACTGTGCTAG` is reported as 2.4 z-score.
`TCAGATTTCAGTTCCGATTAGTGCTAG` has a log fluorescence of 2.78 z-score.
For `CCGTGTTTCTCAAATGTTTTGGTGCTA`, the log fluorescence was 1.25 z-score.

Series 4 — read-out: enzyme activity; action: inhibitor; tested at: 20 µM
Target: Replicase polyprotein 1ab, polymerase (rep, Severe acute respiratory syndrome coronavirus 2, UniProt P0DTD1)
`CC(C)C[C@@H](C(=O)N[C@@H](Cc1ccc(OCc2ccccc2)cc1)C(=O)NC(C)(C)C)N(C)Cc1ccc(C(C)(C)C)cc1` gave an inhibition of 3.81%.
For `NCCC(=O)N[C@@H](Cc1c[nH]cn1)C(=O)O`, the inhibition was 21.1%.
The inhibition of `COc1ccc(-c2cc3c(C)nc(N)nc3n([C@H]3CC[C@H](OCCO)CC3)c2=O)cn1` is reported as -1.27%.
`COc1ccc(C2(CNC(=O)c3ccc(NC(=O)c4ccco4)cc3)CCOCC2)cc1` has an inhibition of 0.13%.
For `Oc1ccc([C@H]2COc3cc(O)ccc3C2)cc1`, the inhibition was 2.63%.
`CCN[C@@H](C)Cc1cccc(C(F)(F)F)c1` gave an inhibition of 5.9%.
With `Nc1ccc(/N=N/c2ccccc2)c(N)n1` the inhibition was 9.04%.
`CCN1CCN(Cc2ccc(-c3cc4c(N[C@H](C)c5ccccc5)ncnc4[nH]3)cc2)CC1` has an inhibition of -0.56%.
`O=C(Nc1cccnc1)c1cc(-c2ccnc(F)c2)ccc1OCc1ccccc1` has an inhibition of -1.51%.
`COc1ccc(/C=C\c2cc(OC)c(OC)c(OC)c2)cc1O` has an inhibition of 6.53%.
`OB1OCc2cc(F)ccc21` gave an inhibition of -2.28%.
`CC(C)(C=O)Cc1cc(C(C)(C)C)c(O)c(C(C)(C)C)c1` has an inhibition of -1.15%.
`CSc1nc(-c2ccnc(NC(C)c3ccccc3)c2)c(-c2ccc(F)cc2)[nH]1` (stereo not shown) has an inhibition of 0.79%.
`CNCC(=O)c1ccc(O)c(O)c1` gave an inhibition of 1.42%.
The inhibition of `CC(C)C[C@H](NC(=O)[C@@H](O)[C@H](N)Cc1ccccc1)C(=O)O` is reported as -0.05%.
With `O=C(Nc1cnccc1Cl)N1CCN(Cc2ccc3c(c2)OC(F)(F)O3)CC1` the inhibition was -0.17%.
The inhibition of `OC[C@H]1O[C@@H](c2ccc(Cl)c(Cc3ccc(O[C@H]4CCOC4)cc3)c2)[C@H](O)[C@@H](O)[C@@H]1O` is reported as 0.73%.
With `CS(=O)(=O)c1ccc(-c2cnc(NCc3ccco3)n3cnnc23)cc1` the inhibition was -4.84%.
`Cc1noc(C)c1-c1cc(O)cc(C(O)c2ccccc2)c1` (stereo not shown) has an inhibition of 0.97%.
`C[C@@H]1CC[C@@]2(OC1)O[C@H]1C[C@H]3[C@@H]4CC=C5C[C@@H](O[C@@H]6O[C@H](CO)[C@@H](O[C@@H]7O[C@@H](C)[C@H](O)[C@@H](O)[C@H]7O)[C@H](O)[C@H]6O[C@@H]6O[C@@H](C)[C@H](O)[C@@H](O)[C@H]6O)CC[C@]5(C)[C@H]4CC[C@]3(C)[C@H]1[C@@H]2C` gave an inhibition of -4.6%.
`CN1CCN2c3ncccc3Cc3ccccc3C2C1` (stereo not shown) has an inhibition of 0.39%.
`C[C@]12CC[C@H](O)CC1=CC[C@@H]1[C@@H]2CC[C@]2(C)C(=O)CC[C@@H]12` gave an inhibition of -11%.
`Cn1c(=O)cc(N2CCC[C@@H](N)C2)n(Cc2ccccc2C#N)c1=O` gave an inhibition of 6.01%.

Further values, each from its own experiment
With `Cc1nc2n(c(=O)c1CCN1CCC(c3noc4cc(F)ccc34)CC1)CCCC2O` (stereo not shown) the GFP-positive cells was 91% (HEK-293T; pseudovirus infection, FDA-approved drug library screen; VSV pseudotyped with SARS-CoV-2 spike; 10 µM, 16 h; relative to: vehicle-treated).

For quick reference, copied from above (series 2):
`CGATTCAG` has an E-score of 0.143.
`AACCAAAG` has an E-score of 0.128.
`ACCTCGCT` gave an E-score of 0.113.
The E-score of `AATGAATG` is reported as -0.0471.
With `CGACTAAG` the E-score was 0.00348.
